Experimental data pooled from the literature.
Method: steady-state kinetics
B1: sacB Y247F (Priestia megaterium, UniProt D5DC07); chain KGNDSKDFNNSYGISHITRDNMVKIPQQQNSDQFKVPAFDESTIKNIASAKGKNASGNTIDLDVWDSWPLQNADGTVATYHGYQIVFALAGDPKDSNDTSVYLFYKKAGDKSIDSWKNAGRVFKDSDKFVPNDPHLKNQTQEWSGSGTLTKDGKVRLFYTDYSGKQYGKQTLTTAQVNMSQPNDNTLKVDGVEDYKSIFDGDGKIYQTVQQFIDEGGFDTGDNHTLRDPHYIEDNGHKYLVFEANTGTEDGYQGEDSLYNRAYYGGNNPFFQSEKKKLLEGSNKEKASLANGALGIIELNDDYTLKKVMKPLITSNTVTDEIERANIFKKDGKWYLFTDSRGSKMTIDGIGQDDVYMLGYVSNTLTGKYKPLNDTGLVLHMDLDPNDKTFTYSHFAVPQTKGDNVVITSYMTNRGFYEDNHSTFAPSFLVNIDGSKTSVVKDRVLEQGQLTVDED
B2: speck (Drosophila melanogaster, UniProt Q94521); chain MEDALTVSGKPAACPVDQDCPYTIELIQPEDGEAVIAMLKTFFFKDEPLNTFLDLGECKELEKYSLKPLPDNCSYKAVNKKGEIIGVFLNGLMRRPSPDDVPEKAADSCEHPKFKKILSLMDHVEEQFNIFDVYPDEELILDGKILSVDTNYRGLGIAGRLTERAYEYMRENGINVYHVLCSSHYSARVMEKLGFHEVFRMQFADYKPQGEVVFKPAAPHVGIQVMAKEVGPAKAAQTKL
B3: protein (Planktothrix agardhii, UniProt F5B6Z0); chain MIVNVIQKDRLKEQKLQFIRNHQQAFDVEPIYPLPLFEDFVTSIEGDCSLEASCKIESDKLIASRFLLFFEDKTQEWQKYLHQSLTFFGLVENRVGVKINYSLLQQFLGSSFDFSKVTVLSAGIDLRNNLAESSLKMHIRIKDYPEKLDKAFALSDGAADGNYLKDFVNLIGFDFYFNGKSEIEIYAEVQEDDFFKPEINNLVWQHFPKTALQPLKASSLFFTGLSKANNNPVLYYHLKNRQDLTNYFKLNDTAQRVHSFYQHQDILPYMWVGTAQKELEKTRIENIRLYYYKSFKMESN
B4: SUOX (Homo sapiens, UniProt P51687); chain ESTHIYTKEEVSSHTSPETGIWVTLGSEVFDVTEFVDLHPGGPSKLMLAAGGPLEPFWALYAVHNQSHVRELLAQYKIGELNPEDKVAPTVETSDPYADDPVRHPALKVNSQRPFNAEPPPELLTENYITPNPIFFTRNHLPVPNLDPDTYRLHVVGAPGGQSLSLSLDDLHNFPRYEITVTLQCAGNRRSEMTQVKEVKGLEWRTGAISTARWAGARLCDVLAQAGHQLCETEAHVCFEGLDSDPTGTAYGASIPLARAMDPEAEVLLAYEMNGQPLPRDHGFPVRVVVPGVVGARHVKWLGRVSVQPEESYSHWQRRDYKGFSPSVDWETVDFDSAPSIQELPVQSAITEPRDGETVESGEVTIKGYAWSGGGRAVIRVDVSLDGGLTWQVAKLDGEEQRPRKAWAWRLWQLKAPVPAGQKELNIVCKAVDDGYNVQPDTVAPIWNLRGVLSNAWHRVHVYVSP
B5: UGT1A9 (Homo sapiens, UniProt O60656); chain GKLLVVPMDGSHWFTMRSVVEKLILRGHEVVVVMPEVSWQLGRSLNCTVKTYSTSYTLEDLDREFKAFAHAQWKAQVRSIYSLLMGSYNDIFDLFFSNCRSLFKDKKLVEYLKESSFDAVFLDPFDNCGLIVAKYFSLPSVVFARGILCHYLEEGAQCPAPLSYVPRILLGFSDAMTFKERVRNHIMHLEEHLLCHRFFKNALEIASEILQTPVTEYDLYSHTSIWLLRTDFVLDYPKPVMPNMIFIGGINCHQGKPLPMEFEAYINASGEHGIVVFSLGSMVSEIPEKKAMAIADALGKIPQTVLWRYTGTRPSNLANNTILVKWLPQNDLLGHPMTRAFITHAGSHGVYESICNGVPMVMMPLFGDQMDNAKRMETKGAGVTLNVLEMTSEDLENALKAVINDKSYKENIMRLSSLHKDRPVEPLDLAVFWVEFVMRHKGAPHLRPAAHDLTWYQYHSLDVIGFLLAVVLTVAFITFKCCAYGYRKCLGKKGRVKKAHKSKTH
B6: enzyme (Phocaeicola vulgatus, UniProt A6KWY2); chain MNYNEIGKTGMRVSNLSFGASSLGGVFHDIREAEGIKAVYTAVENGMNFIDVSPYYGHYKAETVLGKALKEIPRDKYYLSTKVGRYGKDGVNTWDYSGKRATESVYESLDRLHIEYIDLINVHDVEFSDMNQVVNETLPALVELKKKGIVGHVGITDLQLENLKWIIDHSEPGTVESVLNFCHYCLNDEKLTDYLDYFESKNIGIINASPLSMGLLSQRGVPAWHPAPQSLVEACRKAVQHCLSKNYPIEKLAIQYSVSNPRIATTLFSSANPDNVLKNITYAEEPIDWNLVKEVQEIIGKQMRISWANS
B7: TenA_E (Arabidopsis thaliana, UniProt Q9ASY9); chain MEKRGVIDTWIDKHRSIYTAATRHAFVVSIRDGSVDLSSFRTWLGQDYLFVRRFVPFVASVLIRACKDSGESSDMEVVLGGIASLNDEIEWFKREGSKWDVDFSTVVPQRANQEYGRFLEDLMSSEVKYPVIMTAFWAIEAVYQESFAHCLEDGNKTPVELTGACHRWGNDGFKQYCSSVKNIAERCLENASGEVLGEAEDVLVRVLELEVAFWEMSRGGQ
B8: enzyme (Thermobifida fusca, UniProt Q47RK4); chain MTDVYILDAVRTPFGRYGGALSGIRPDDLAAHVLRALAERSPGLDPAAVDDVFFGDANGAGEDNRNVARMAALLAGWPTSVPGVTLNRLCGSGMESVIAANRAIAVGDASLAVAGGVESMSRAPWVLPKPAQGFPTGHETLYSTTLGWRMVNPAMPEQWTVSLGESTEQVAATYGISRAEQDAFALRSHERAARAWAEGVFDAEITQIPGAELERDESIRETSAEKLAALKPAFRPDGTITAGNASPLNDGAAALLIGDAAAAERVGREPLARIVSRGVAAVDPDVFGIGPVQAAEIALRRAGIGWDDLSVVELNEAFAAQSLACLKLWPDLDPEIVNPNGGAIAIGHPLGASGARIVGTLAHELHRRGGGWGLAAICIGVGQGLAVVLHR
B9: protein (Phaseolus vulgaris, UniProt V7ASW7); chain MALKDAQDQQDPRLERISSAIRVIPDFPKPGILFQDITTLLLDPKAFKDTIDLFVERYRDQNINVVAGVEARGFIFGPPIALAIGAKFVPMRKPNKLPGEVISEEYSLEYGTDKIEMHVGAVQPGERALVIDDLIATGGTLDAAIKLLERVGVDVVECACLIELPELKGRDRLGDKPLFVLVKVTA
B10: enzyme (Halalkalibacterium halodurans, UniProt Q9KCN8); chain MLNVTQLQEATTFIQQQIETKPTIGLILGSGLGILADEIEQPVKVPYSDIPHFPVSTVQGHAGQLVIGMLEGKQVIAMQGRFHFYEGYSLEVVTFPVRVMKALGVEQIIVTNAAGGVNESFEAGDLMIIRDHINNMAQNPLIGPNDEAFGVRFPDMSNAYSERLRTLAKEKGNTLNLKLQEGVYVANTGPVYETPAEVRMIRKLGGDAVGMSTVPEVIVARHAGLEVLGISCISNMAAGILPQPLSHDEVIETTERVRQDFLNLVKAIVKDM
B11: protein (Adiantum capillus-veneris, UniProt A0A4Y6I289); chain MTDAVENKQVEFGALEVEGIKFAPSVAALGSTKQLVLGGAGFRGLEISGNLVKFTAIGIYVDEAIIPHLSPKLHGKSIEELCNNELLFEEVLAAPFEKLVRVVFLLPLTGPQYSEKVVERMGLLPNPGIKEESTKQFLEIFKPENFPPRTSLICSFTEEALKVAFMKTDDFPEDADAVIEDKWLARAFLASIIGKDGVSPLAKLSFAERMSRCL
B12: ST3GAL6 (Homo sapiens, UniProt Q9Y274); chain TNVYWVAPVEMKRRNKIQPCLSKPAFASLLRFHQFHPFLCAADFRKIASLYGSDKFDLPYGMRTSAEYFRLALSKLQSCDLFDEFDNIPCKKCVVVGNGGVLKNKTLGEKIDSYDVIIRMNNGPVLGHEEEVGRRTTFRLFYPESVFSDPIHNDPNTTVILTAFKPHDLRWLLELLMGDKINTNGFWKKPALNLIYKPYQIRILDPFIIRTAAYELLHFPKVFPKNQKPKHPTTGIIAITLAFYICHEVHLAGFKYNFSDLKSPLHYYGNATMSLMNKNAYHNVTAEQLFLKDIIEKNLVINLTQD
Chain of UniProt Q54527 (whole entry, looked up): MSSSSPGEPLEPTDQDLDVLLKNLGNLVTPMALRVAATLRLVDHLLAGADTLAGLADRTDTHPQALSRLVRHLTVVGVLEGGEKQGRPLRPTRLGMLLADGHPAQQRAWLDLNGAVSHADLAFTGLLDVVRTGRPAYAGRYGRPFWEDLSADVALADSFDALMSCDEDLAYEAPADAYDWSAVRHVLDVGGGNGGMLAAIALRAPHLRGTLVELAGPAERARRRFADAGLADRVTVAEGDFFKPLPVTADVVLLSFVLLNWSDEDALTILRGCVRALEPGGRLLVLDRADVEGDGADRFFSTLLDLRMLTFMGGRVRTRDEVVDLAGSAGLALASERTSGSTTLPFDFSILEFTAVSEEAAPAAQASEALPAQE
Chain of UniProt Q9HJT3 (whole entry, looked up): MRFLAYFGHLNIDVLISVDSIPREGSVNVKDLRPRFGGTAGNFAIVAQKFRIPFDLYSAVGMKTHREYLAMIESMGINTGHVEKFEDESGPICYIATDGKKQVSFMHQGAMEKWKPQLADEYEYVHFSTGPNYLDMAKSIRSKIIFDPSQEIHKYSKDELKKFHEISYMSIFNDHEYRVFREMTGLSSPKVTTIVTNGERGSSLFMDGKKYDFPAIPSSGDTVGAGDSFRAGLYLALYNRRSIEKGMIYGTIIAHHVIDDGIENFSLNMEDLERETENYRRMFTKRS
Chain of UniProt A4YI89 (whole entry, looked up): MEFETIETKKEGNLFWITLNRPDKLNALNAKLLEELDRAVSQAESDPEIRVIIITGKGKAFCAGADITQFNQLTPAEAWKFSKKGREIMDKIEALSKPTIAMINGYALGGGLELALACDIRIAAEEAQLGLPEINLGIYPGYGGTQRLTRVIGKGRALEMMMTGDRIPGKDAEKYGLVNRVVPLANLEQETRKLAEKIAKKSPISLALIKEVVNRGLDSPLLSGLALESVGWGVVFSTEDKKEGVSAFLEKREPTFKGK

B1 (sacB Y247F)
Km (OC[C@H]1O[C@@](CO)(O[C@H]2O[C@H](CO)[C@@H](O)[C@H](O)[C@H]2O)[C@@H](O)[C@@H]1O; pH 6.9): 21900 µM

B2 (speck)
Km (CC(=O)SCCNC(=O)CCNC(=O)[C@H](O)C(C)(C)COP(=O)(O)OP(=O)(O)OC[C@H]1O[C@@H](n2cnc3c(N)ncnc32)[C@H](O)[C@@H]1OP(=O)(O)O; pH 7.2, 30 °C): 430 µM

B3 (protein)
Km (CC(C)=CCOP(=O)(O)OP(=O)(O)O; with: tri-Tyr peptide acceptor): 270 µM

AphC (Rhodococcus jostii, UniProt Q0S9X1)
Km (CCc1ccc(O)c(O)c1; pH 8, 25 °C, apparent, with: O2): 1.19 µM

3-hydroxypropionyl-CoA dehydratase (Metallosphaera sedula, UniProt A4YI89)
Km (CC(C)(COP(=O)(O)OP(=O)(O)OC[C@H]1O[C@@H](n2cnc3c(N)ncnc32)[C@H](O)[C@@H]1OP(=O)(O)O)[C@@H](O)C(=O)NCCC(=O)NCCSC(=O)CCO; pH 6.5, 65 °C, substrate made in situ, with: ATP, CoA, NADPH): 25.1 µM

B4 (SUOX)
Km (O=S(O)O; with: cytochrome c (horse heart)): 1 µM

B5 (UGT1A9)
Km (CC(C)c1cccc(C(C)C)c1O; pH 7.4, 37 °C): 26 µM

B6 (enzyme)
Km (NC(=O)c1ccc[n+]([C@@H]2O[C@H](COP(=O)(O)OP(=O)(O)OC[C@H]3O[C@@H](n4cnc5c(N)ncnc54)[C@H](OP(=O)(O)O)[C@@H]3O)[C@@H](O)[C@H]2O)c1; pH 8, 30 °C, cofactor varied): 3 µM

B7 (TenA_E)
Km (Cc1ncc(CNC=O)c(N)n1; pH 7.5, 30 °C, formylamino-HMP amidohydrolase activity, with: 450 mM glycine betaine): 70 µM

enzyme (Agrobacterium fabrum, UniProt Q7CU96)
Km (O=C(O)C(=O)C[C@@H](O)[C@H](O)C(=O)O; pH 7.9): 27 µM

B8 (enzyme)
Km (CC(C)(COP(=O)(O)OP(=O)(O)OC[C@H]1O[C@@H](n2cnc3c(N)ncnc32)[C@H](O)[C@@H]1OP(=O)(O)O)[C@@H](O)C(=O)NCCC(=O)NCCSC(=O)CCCC(=O)O; pH 7.4, 37 °C): 2330 µM

TaNK (Thermoplasma acidophilum, UniProt Q9HJT3)
Km (Nc1nc2c(ncn2[C@@H]2O[C@H](COP(=O)(O)OP(=O)(O)OP(=O)(O)O)[C@@H](O)[C@H]2O)c(=O)[nH]1; pH 8, 22 °C, apparent, with: inosine, Mg2+): 185 µM

B9 (protein)
Km (Nc1ncnc2nc[nH]c12; pH 7.5, 37 °C, MgCl2 5 mM, with: PRPP 1 mM): 360 µM

B10 (enzyme)
Km (OC[C@H]1O[C@@H](n2cnc3c(O)ncnc32)[C@H](O)[C@@H]1O): 236 µM

B11 (protein)
Km (O=C(/C=C/c1ccc(O)cc1)c1ccc(O)cc1O): 61.4 µM

enzyme (Streptomyces purpurascens, UniProt Q54527)
Km (CC[C@@]1(O)C[C@H](O[C@H]2C[C@H](N)[C@H](O)[C@H](C)O2)c2c(O)c3c(c(O)c2[C@H]1C(=O)O)C(=O)c1cccc(O)c1C3=O; pH 7.5, 30 °C): 12 µM

B12 (ST3GAL6)
Km (CC(=O)N[C@H]1[C@H](O[C@H]2[C@@H](O)[C@@H](CO)O[C@@H](Oc3ccc([N+](=O)[O-])cc3)[C@@H]2O)O[C@H](CO)[C@@H](O[C@@H]2O[C@H](CO)[C@H](O)[C@H](O)[C@H]2O)[C@@H]1O; pH 6, with: CMP-Neu5Ac): 210 µM

Repeated from above:
B11 (protein)
Km (O=C(/C=C/c1ccc(O)cc1)c1ccc(O)cc1O): 61.4 µM
